Experimental data from different studies.
A part holds a random share of what one study measured.

Block 1
Target: Histone acetyltransferase KAT6A, both winged helices, GST fusion (KAT6A, Homo sapiens, UniProt Q92794, residues 1-181)
Technique: protein binding microarray
Molecule type: double-stranded DNA, one strand shown
Medium: in vitro
Tested at: not given
Notes: 8-mer, flanks averaged, mean of 2 arrays, mostly near background
Reference: not given
Reading: higher = stronger binding
Construct (chain): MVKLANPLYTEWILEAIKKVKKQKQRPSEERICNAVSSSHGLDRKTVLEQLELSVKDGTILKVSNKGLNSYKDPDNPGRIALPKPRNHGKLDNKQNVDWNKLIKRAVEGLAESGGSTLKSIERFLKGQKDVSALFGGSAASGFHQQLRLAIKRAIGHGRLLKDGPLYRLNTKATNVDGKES
Sequence | E-score
CATAATGG | -0.0136
CCGGACAA | 0.227
TTCGACAA | -0.138
ACCCCCTA | -0.361

Block 2
Target: Prothrombin, mature alpha-thrombin (F2, Homo sapiens, UniProt P00734)
Technique: aptamer microarray, sandwich
Molecule type: DNA with 2'F-ANA
Medium: in vitro
Tested at: 200 nM
Notes: whole 15-mer aptamer, many near background
Together with: Cy3 exosite-II aptamer, 400 nM
Reading: higher = stronger binding
Sequence | mean fluorescence intensity
GGTTGGTGTGGTTGG (2'F-ANA at 6 10 11 12) | 352 a.u.
GGTTGGTGTGGTTGG (2'F-ANA at 1 2 5 6 9 11 12 13 14) | 64 a.u.
GGTTGGTGTGGTTGG (2'F-ANA at 1 3 4 5 6 8 9 10 15) | 47.7 a.u.

Block 3
Target: RNA binding protein fox-1 homolog 2, RRM domain, GST-SBP tag (RBFOX2, Homo sapiens, UniProt O43251-10, residues 100-194)
Technique: RNA Bind-n-Seq
Molecule type: RNA
Medium: in vitro
Tested at: 365 nM
Notes: natural RNA segment, single round, ends assumed
Reference: no-protein control
Reading: higher = stronger binding
Residues (chain): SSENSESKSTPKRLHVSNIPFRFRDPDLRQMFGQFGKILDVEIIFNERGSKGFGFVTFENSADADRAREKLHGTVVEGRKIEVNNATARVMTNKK
Sequence | RBNS enrichment (R)
GGGAGUUCUACAGUCCGACGAUCGAAGAUUAACAACAGUCUCUCCCCCAGAACCUCAUUAUUUAUUUAUUUGGCAUUCCAGAAAGGAUUGCUGAUAAUUUAGAUGAUGCAGGGAAGGCCACUGUUAGUAAGGUUGGAAUUCUCGGGUGCCAA | 0.335
GGGAGUUCUACAGUCCGACGAUCGCUUUGUAAAAGCUUUGGUGUUAAGAGUCAAUAUUUUUUGGCUUUGUAGAUAAAGACUUAAAUUUUUGUGCAACAUAGUGGUGUUAAAGCACACAUCCAUUGGACUAUGCUGGAAUUCUCGGGUGCCAA | 0.356
GGGAGUUCUACAGUCCGACGAUCGCCUGGAUGAGUUGCACCUUGCAUCUUGAGCAUGCAUUUCUCACAAUAAUUAUUAAGCUGUGUGAUAAUUUCUGCUUUCAGGACACUCAUCCAUUAUCUUGGCUGUGAGCUGGAAUUCUCGGGUGCCAA | 3.79
GGGAGUUCUACAGUCCGACGAUCUGAGAACAAAGGUCUAGGAUACUGCAUUAGUUACCAGAAAACUAGGGGAAUUUAGAGGGAAAAAAAAUCCAUGUUUUCUAUUUCCCAGGUUUUUAAAAAGUAGCUCUUCCUGGAAUUCUCGGGUGCCAA | 0.52

Single results of other studies
Molecule | target | test | test system | setting | how to read | measurement | result
PhoQ, residues 284 288 289 292 302 303 AGCYAI | PhoP, residues 12 14 15 18 19 SPWRL (Escherichia coli, UniProt P23836) | Sort-seq, refers to: YFP reporter | E. coli | PhoQ-PhoP variant library, together with: 10 µM Mg2+ | reference: high Mg2+ state, higher = stronger signaling | fold induction | 1.25

A few entries again (block 3):
Sequence | RBNS enrichment (R)
GGGAGUUCUACAGUCCGACGAUCGCCUGGAUGAGUUGCACCUUGCAUCUUGAGCAUGCAUUUCUCACAAUAAUUAUUAAGCUGUGUGAUAAUUUCUGCUUUCAGGACACUCAUCCAUUAUCUUGGCUGUGAGCUGGAAUUCUCGGGUGCCAA | 3.79
